# Assay results from different studies.
# Each line is one published result; not all experiments were run side by side. “And” joins repeats or separate records; there may be more than shown. ± gives the spread as reported.
# HCRTR2 del254-292/I293E/K294R/L160H/M161K/Q254E: Orexin receptor type 2 (HCRTR2, Homo sapiens, UniProt O43614, del254-292/I293E/K294R/L160H/M161K/Q254E)
# Chain of UniProt O43614 (whole entry, unmodified, looked up): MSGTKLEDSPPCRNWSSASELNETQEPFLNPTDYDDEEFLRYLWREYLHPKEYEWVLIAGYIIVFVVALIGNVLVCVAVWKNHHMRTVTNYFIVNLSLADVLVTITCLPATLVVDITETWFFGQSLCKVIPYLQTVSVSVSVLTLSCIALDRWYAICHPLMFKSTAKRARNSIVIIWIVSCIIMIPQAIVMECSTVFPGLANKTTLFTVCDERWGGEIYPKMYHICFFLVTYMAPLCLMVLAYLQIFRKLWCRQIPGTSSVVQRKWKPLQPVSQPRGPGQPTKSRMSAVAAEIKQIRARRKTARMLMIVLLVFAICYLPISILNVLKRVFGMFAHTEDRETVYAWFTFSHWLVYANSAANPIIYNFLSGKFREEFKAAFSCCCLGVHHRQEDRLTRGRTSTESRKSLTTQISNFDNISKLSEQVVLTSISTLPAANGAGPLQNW
# Chain of UniProt Q01959 (whole entry, unmodified, looked up): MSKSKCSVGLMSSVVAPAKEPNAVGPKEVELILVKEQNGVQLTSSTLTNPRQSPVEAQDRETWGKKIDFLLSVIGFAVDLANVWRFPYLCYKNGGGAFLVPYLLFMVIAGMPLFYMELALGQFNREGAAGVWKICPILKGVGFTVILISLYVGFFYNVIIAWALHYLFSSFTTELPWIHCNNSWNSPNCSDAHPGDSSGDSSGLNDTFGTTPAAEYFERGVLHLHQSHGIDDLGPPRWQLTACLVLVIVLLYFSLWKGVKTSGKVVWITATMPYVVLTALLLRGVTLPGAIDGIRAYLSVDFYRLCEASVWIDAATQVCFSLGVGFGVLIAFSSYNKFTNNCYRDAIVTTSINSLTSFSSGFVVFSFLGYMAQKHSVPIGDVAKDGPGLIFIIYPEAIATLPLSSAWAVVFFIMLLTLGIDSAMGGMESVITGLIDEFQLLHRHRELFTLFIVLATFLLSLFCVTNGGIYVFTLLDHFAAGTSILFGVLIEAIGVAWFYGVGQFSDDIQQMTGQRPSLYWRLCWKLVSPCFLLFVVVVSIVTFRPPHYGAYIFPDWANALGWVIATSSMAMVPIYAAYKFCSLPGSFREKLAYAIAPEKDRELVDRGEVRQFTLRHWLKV
# Chain of UniProt P43681 (whole entry, looked up): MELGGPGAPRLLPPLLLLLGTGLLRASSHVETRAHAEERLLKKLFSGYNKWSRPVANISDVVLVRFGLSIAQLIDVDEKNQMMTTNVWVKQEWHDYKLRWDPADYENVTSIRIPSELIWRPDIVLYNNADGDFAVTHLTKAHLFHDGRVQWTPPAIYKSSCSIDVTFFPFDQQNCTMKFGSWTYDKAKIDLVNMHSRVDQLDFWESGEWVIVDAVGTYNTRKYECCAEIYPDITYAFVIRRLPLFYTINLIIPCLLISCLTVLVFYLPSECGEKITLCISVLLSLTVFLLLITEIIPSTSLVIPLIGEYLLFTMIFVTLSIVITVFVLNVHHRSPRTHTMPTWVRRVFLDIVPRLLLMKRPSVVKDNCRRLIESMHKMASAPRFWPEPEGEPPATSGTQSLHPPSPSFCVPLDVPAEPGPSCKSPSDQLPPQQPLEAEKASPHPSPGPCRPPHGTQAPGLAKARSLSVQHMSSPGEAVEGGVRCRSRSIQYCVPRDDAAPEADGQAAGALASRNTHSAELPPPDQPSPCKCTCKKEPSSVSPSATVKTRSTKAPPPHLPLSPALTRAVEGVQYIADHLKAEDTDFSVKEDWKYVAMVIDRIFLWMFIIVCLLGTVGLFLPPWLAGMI
# Chain of UniProt P35367 (whole entry, looked up): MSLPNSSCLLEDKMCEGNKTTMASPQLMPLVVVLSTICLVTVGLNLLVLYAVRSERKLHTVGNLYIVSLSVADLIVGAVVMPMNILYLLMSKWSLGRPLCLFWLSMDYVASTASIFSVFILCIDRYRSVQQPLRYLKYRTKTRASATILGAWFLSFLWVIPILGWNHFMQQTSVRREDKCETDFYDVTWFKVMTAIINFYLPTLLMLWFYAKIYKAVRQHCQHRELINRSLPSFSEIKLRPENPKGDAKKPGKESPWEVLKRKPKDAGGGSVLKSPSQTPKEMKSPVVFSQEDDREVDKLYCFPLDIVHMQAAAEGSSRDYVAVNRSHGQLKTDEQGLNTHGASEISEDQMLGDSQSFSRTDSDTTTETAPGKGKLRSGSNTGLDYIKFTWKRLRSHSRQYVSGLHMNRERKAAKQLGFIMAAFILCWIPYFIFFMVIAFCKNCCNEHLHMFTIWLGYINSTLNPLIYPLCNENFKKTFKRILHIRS
# Chain of UniProt P06276 (whole entry, looked up): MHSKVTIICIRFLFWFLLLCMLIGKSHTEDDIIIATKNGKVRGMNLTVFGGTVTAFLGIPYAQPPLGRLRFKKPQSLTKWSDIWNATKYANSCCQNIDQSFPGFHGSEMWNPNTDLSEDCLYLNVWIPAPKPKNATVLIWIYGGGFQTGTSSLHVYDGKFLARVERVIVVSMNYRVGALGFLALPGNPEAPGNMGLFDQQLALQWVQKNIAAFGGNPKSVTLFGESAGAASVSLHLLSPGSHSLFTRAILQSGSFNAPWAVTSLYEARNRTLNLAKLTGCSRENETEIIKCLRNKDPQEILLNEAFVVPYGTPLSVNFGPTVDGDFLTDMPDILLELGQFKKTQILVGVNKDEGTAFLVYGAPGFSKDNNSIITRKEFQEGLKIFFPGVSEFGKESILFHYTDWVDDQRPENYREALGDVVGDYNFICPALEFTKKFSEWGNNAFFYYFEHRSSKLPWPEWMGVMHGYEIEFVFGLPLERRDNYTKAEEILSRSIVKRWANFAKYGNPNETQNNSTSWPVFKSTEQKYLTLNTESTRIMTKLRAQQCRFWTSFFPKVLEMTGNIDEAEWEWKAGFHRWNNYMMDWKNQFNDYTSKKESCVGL
# Chain of UniProt P18507 (whole entry, looked up): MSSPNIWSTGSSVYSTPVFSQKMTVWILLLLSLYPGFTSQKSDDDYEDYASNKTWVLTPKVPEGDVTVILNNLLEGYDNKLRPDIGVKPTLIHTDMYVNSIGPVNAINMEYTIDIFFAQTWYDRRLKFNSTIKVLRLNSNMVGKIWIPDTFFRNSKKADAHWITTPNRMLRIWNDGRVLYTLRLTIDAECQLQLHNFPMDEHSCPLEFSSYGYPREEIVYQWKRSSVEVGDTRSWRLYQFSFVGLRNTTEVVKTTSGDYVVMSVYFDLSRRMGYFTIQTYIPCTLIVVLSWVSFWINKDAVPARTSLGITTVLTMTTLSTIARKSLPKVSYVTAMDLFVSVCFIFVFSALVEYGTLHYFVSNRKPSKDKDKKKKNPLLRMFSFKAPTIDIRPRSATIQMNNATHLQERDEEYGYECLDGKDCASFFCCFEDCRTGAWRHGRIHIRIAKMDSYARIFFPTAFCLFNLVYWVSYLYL
# Chain of UniProt P17787 (whole entry, looked up): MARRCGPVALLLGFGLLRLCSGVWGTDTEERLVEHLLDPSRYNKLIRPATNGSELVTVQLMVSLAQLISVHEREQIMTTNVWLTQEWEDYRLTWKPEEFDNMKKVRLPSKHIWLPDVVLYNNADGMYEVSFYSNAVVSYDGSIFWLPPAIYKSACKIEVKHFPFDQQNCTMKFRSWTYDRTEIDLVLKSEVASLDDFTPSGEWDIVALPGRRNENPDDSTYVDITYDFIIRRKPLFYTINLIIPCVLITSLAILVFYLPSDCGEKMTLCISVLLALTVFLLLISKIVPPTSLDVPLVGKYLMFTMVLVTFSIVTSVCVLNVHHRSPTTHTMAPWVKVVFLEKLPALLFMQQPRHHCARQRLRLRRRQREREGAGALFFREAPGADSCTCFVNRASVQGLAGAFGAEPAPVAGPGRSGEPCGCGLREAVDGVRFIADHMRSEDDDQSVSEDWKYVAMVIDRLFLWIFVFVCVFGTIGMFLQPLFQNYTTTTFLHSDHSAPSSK
# Chain of UniProt P54760 (whole entry, looked up): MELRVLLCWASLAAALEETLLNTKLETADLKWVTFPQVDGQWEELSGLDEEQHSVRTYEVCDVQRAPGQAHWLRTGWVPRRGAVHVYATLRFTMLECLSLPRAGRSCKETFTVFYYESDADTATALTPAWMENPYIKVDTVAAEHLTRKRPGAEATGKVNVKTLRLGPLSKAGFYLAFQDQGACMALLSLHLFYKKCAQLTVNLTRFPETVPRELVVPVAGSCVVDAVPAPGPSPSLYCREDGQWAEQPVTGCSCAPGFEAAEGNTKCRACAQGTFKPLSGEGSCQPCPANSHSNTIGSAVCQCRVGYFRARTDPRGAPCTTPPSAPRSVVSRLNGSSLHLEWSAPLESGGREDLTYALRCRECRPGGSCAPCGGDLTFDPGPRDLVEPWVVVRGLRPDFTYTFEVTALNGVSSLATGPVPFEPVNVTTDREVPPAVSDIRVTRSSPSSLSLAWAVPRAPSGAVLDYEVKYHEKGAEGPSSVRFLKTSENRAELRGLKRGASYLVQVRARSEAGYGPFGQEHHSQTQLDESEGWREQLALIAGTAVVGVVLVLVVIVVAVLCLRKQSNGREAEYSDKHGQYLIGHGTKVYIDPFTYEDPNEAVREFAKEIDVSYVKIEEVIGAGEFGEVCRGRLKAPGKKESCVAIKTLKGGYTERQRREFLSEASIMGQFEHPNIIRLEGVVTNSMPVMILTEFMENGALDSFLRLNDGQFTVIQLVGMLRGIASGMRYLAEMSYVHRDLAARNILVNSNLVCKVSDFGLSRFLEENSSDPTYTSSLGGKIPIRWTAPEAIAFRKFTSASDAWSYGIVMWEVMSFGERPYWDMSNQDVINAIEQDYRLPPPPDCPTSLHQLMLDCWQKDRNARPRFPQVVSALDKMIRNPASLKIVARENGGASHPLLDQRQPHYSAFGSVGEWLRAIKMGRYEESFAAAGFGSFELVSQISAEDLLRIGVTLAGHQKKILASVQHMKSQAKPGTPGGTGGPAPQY
# Chain of UniProt O95372 (whole entry, looked up): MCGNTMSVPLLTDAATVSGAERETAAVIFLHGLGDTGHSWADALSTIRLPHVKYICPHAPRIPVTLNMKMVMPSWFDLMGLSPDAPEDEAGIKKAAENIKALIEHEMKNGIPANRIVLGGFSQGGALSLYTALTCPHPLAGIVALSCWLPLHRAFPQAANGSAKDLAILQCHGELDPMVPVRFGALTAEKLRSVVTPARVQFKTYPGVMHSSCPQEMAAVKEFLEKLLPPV
SMILES,target or system,test,system,setting,scale,measurement,result
O=C(Nc1cccnn1)N1CCC(=Cc2cccc(Oc3ccc(C(F)(F)F)cn3)c2)CC1,"Alpha-2C adrenergic receptor (ADRA2C, Homo sapiens, UniProt P18825)",binding,,"10 µM, added: [3H]rauwolscine",,inhibition,18%
COC(=O)[C@@H](NC(=O)c1nn(Cc2ccc(F)cc2)c2ccccc12)C(C)(C)C,"Cannabinoid receptor 1 (CNR1, Homo sapiens, UniProt P21554)",GTPase,,,relative to: compound,Gi GTP turnover median,100%
c1ccc2cc([C@]34CNC[C@H]3C4)ccc2c1,"Sodium-dependent dopamine transporter (SLC6A3, Homo sapiens, UniProt Q01959, V152A)","inhibitor, [3H]dopamine uptake",,"1 nM, V152A mutant",relative to: no inhibitor,dopamine uptake,88.8% and 96.6% and 95.3%
CCCCCCC(C)(C)c1ccc([C@@H]2C[C@H](O)CC[C@H]2CCCO)c(O)c1,"Probable G-protein coupled receptor 132 (GPR132, Homo sapiens, UniProt Q9UNW8)",agonist,,,,Emax,100%
COc1ccc(CN(C(=O)[C@@H](N)Cc2c(C)cc(C(N)=O)cc2C)[C@@H](C)c2ncc(-c3ccccc3)[nH]2)cc1C(=O)O,"Cholinesterase (BCHE, Homo sapiens, UniProt P06276)",,,"concentration not given, Triton",,efficacy,-77.8 ± 18.9%
COc1ccc(N2C(=O)N(c3c(C)cccc3Cl)Cc3cnc(Nc4ccc(C5CCN(C)CC5)cc4OC)nc32)nc1,"Ephrin type-B receptor 4 (EPHB4, Homo sapiens, UniProt P54760)",kinase activity,,0.5 µM,,inhibition,97%
C[C@H]1CN(c2n[nH]c3nc(N[C@H]4CC[C@H](NS(=O)(=O)CCC(F)(F)F)CC4)ncc23)CCO1,"Putative ribosomal protein uL10-like (RPLP0P6, Homo sapiens, UniProt Q8NHW5)","competitor, Kinobeads competition, item: RPLP0-like",human cell extract,0.8 µM,relative to: vehicle,relative abundance,1.17
O=C(c1ccc(Cl)cc1)N1CCN2C(=O)N(OC(=O)N3CCOc4ccccc43)C(=O)C2C1 (centres unmarked),"Acyl-protein thioesterase 2 (Homo sapiens, UniProt O95372)","enzyme activity, inhibitor, MS-based ABPP",SW-620 conditioned medium,"10 µM, 1 h, 37 °C","relative to: compound over DMSO, lower = stronger inhibition",median ratio,1.25
CCCCCCCC[C@H]1O[C@H]1C/C=C/C=C/[C@H](O)CC(=O)NC1=C[C@](C)(CC)OC1=O,"Na(+)-translocating NADH-quinone reductase subunit B, whole Na+-NQR complex (nqrB, Vibrio cholerae serotype O1, UniProt Q9KPS2, G141A)","binding, isothermal titration calorimetry",,"20 °C, NqrB-G141A mutant",,ΔH,-68 ± 23 kcal/mol
OC(Cn1cncn1)(Cn1cncn1)c1ccc(F)cc1F,"CDR1 (Candida albicans, UniProt Q5ANA3)",malachite green phosphate release,,4 µM,relative to: untreated,relative ATPase activity,97.9%
Clc1cccc(N2CCNCC2)c1Cl,"Muscarinic acetylcholine receptor M4 (CHRM4, Homo sapiens, UniProt P08173)","ERK1/2 phosphorylation, agonist",CHO cells,,,Emax,16%
CO[C@H]1C[C@@H]2CC[C@@H](C)[C@@](O)(O2)C(=O)C(=O)N2CCCC[C@H]2C(=O)O[C@H]([C@H](C)C[C@@H]2CC[C@@H](OC(=O)NCCOCCOCCOCCOCCOCCOCCOCCOCCC(=O)N3CCc4cc(Cn5nc(-c6ccc7oc(N)nc7c6)c6c(N)ncnc65)ccc4C3)[C@H](OC)C2)C[C@@H](O)[C@H](C)/C=C(\C)[C@@H](O)[C@@H](OC)C(=O)[C@H](C)C[C@H](C)/C=C/C=C/C=C/1C,,phase 1 dose escalation,advanced solid tumour patients,"intravenous, 16 mg weekly, any grade",,deaths due to TRAEs,0%
C[C@]12CCC(=O)C=C1CC[C@@H]1[C@@H]2CC[C@]2(C)C(=O)CC[C@@H]12,"Aromatase (CYP19A1, Homo sapiens, UniProt P11511)",,,,,kon,1.1e+07 M⁻¹ s⁻¹
Cc1ccc(-n2nccn2)c(C(=O)N2CCN(c3nc4cc(Cl)ccc4o3)CC[C@H]2C)c1,HCRTR2 del254-292/I293E/K294R/L160H/M161K/Q254E,"fluorescence sensor response, fluorescence",,"concentration not given, added: OXA",,normalised fluorescence response,-0.155 and -0.0149 and 0.348 and -0.265 and 0.0564 and -0.0321
COc1cc(Nc2ncc(F)c(Nc3ccc4c(n3)NC(=O)C(C)(C)O4)n2)cc(OC)c1OC,"Polyunsaturated fatty acid lipoxygenase ALOX12 (ALOX12, Homo sapiens, UniProt P18054)",,,,,IC50,> 10 µM
CN[C@@]1(c2ccccc2Cl)CCCCC1=O,"Neuronal acetylcholine receptor; alpha4/beta2 (Homo sapiens, UniProt P17787+P43681)","radioligand binding, agonist, radioligand displacement",,30 µM,,inhibition,-5%
CCCc1cc(O)c2c(c1)OC(C)(C)[C@@H]1CCC(C)=C[C@@H]21,"Transient receptor potential cation channel subfamily V member 3 (TRPV3, Homo sapiens, UniProt Q8NET8, S444A)","calcium uptake, agonist",HEK293S,"mutant S444A, site 2",,Hill coefficient,2.08 ± 0.24
CNC(=O)[C@@H](c1ccccc1)N1CCc2cc(OC)c(OC)cc2[C@@H]1CCc1ccc(C(F)(F)F)cc1,HCRTR2 del254-292/I293E/K294R/L160H/M161K/Q254E,"fluorescence sensor response, fluorescence",,concentration not given,,normalised fluorescence response,-0.95 and -0.62 and -1.2 and 2.92 and 0.819 and 1.09 and -1.02
O=c1[nH]c2nc(-c3ccccc3)sc2c(=O)n1O,"Ketol-acid reductoisomerase (NADP(+)) (ilvC, Mycobacterium tuberculosis, UniProt P9WKJ7)",slow-binding inhibitor,,no pre-incubation,,koff,1.9e-05 s⁻¹
CN(C(=O)n1cnc(-c2ccc[n+]([O-])c2)c1)C1CCCCC1,"Histamine H1 receptor (HRH1, Homo sapiens, UniProt P35367)",radioligand binding,,"10 µM, added: [3H]pyrilamine",,inhibition,13%
Oc1ccc2c3c1O[C@H]1[C@@H](O)CC[C@@]4(O)[C@@H](C2)N(CC2CCC2)CC[C@]314,"Hydroxycarboxylic acid receptor 3 (HCAR3, Homo sapiens, UniProt P49019)","β-arrestin recruitment, TANGO luminescence, item: GPR109B",,concentration not given,relative to: basal luminescence,log2 fold change,-0.365
C=CCN1CC[C@]23c4c5ccc(O)c4O[C@H]2C(=O)CC[C@]3(O)[C@H]1C5,"Choline O-acetyltransferase (Homo sapiens, UniProt P28329)",,,concentration not given,,inhibition,4%
Brc1ccc2c(c1)C(c1ccccn1)=NCc1c(-c3cnco3)ncn1-2,"GABRG2/GABRA3, with β3 subunit (Homo sapiens, UniProt P18507+P34903)",[3H]flunitrazepam binding,,,relative to: α3β3γ2 over α1β3γ2 GABA-A,selectivity ratio,1.62

# A few entries again:
SMILES,target or system,test,system,setting,scale,measurement,result
CN(C(=O)n1cnc(-c2ccc[n+]([O-])c2)c1)C1CCCCC1,"Histamine H1 receptor (HRH1, Homo sapiens, UniProt P35367)",radioligand binding,,"10 µM, added: [3H]pyrilamine",,inhibition,13%
Oc1ccc2c3c1O[C@H]1[C@@H](O)CC[C@@]4(O)[C@@H](C2)N(CC2CCC2)CC[C@]314,"Hydroxycarboxylic acid receptor 3 (HCAR3, Homo sapiens, UniProt P49019)","β-arrestin recruitment, TANGO luminescence, item: GPR109B",,concentration not given,relative to: basal luminescence,log2 fold change,-0.365
